Measured values collected from several papers.
Each numbered part is a random draw from the data of one study; scales do not carry over between parts.

Block 1
Target: Sal-like protein 4, full length isoform A (SALL4, Homo sapiens, UniProt Q9UJQ4, residues 1-1053)
UniProt Q9UJQ4, sequence (whole entry, looked up): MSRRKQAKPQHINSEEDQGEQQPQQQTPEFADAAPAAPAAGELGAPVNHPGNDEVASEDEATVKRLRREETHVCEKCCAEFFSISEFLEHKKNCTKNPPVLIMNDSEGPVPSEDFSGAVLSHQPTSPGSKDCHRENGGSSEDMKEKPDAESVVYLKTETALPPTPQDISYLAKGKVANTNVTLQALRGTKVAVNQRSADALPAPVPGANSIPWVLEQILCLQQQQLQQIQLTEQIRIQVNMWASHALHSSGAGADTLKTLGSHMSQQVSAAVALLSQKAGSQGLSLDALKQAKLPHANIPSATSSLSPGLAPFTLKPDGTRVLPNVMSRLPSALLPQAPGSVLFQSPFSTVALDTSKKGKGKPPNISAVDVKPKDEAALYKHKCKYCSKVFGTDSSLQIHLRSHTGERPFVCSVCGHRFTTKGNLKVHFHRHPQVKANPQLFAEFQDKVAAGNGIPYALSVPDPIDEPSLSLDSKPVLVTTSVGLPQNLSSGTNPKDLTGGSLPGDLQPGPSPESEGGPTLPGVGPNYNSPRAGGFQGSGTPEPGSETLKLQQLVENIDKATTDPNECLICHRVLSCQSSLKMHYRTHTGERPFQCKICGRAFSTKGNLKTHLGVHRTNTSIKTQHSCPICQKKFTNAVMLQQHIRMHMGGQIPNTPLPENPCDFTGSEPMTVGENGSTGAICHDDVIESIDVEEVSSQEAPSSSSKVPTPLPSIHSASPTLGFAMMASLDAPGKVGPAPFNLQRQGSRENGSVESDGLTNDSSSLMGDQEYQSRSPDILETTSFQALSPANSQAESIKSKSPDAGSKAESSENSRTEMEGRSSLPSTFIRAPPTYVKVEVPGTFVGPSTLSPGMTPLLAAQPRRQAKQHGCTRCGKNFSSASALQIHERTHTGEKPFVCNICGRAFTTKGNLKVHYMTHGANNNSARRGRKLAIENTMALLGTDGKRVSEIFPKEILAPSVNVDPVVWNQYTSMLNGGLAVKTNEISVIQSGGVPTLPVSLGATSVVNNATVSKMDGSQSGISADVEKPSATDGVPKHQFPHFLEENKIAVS
Technique: universal PBM
Form: double-stranded DNA, one strand shown
Sample: in vitro
Tested at: 600 nM
Setting: 8-mer, flanks averaged, mean of replicates
Reading: higher = stronger binding
`ATACTACG` has an E-score of 0.115.
`ATTCAGTA` has an E-score of 0.303.
The E-score of `TACGGGGA` is reported as -0.234.

Block 2
Target: Interferon regulatory factor 7, full length, phosphomimetic (IRF7, Homo sapiens, UniProt Q92985, residues 1-503, S101K/S471D/S472D/S475D/S476D/S477D/S483D/S484D/S487D)
Technique: protein-binding microarray
Form: double-stranded DNA, one strand shown
Sample: in vitro
Tested at: 250 nM
Setting: 60-bp whole probe
Added: salmon DNA 0.4 mg/ml
Baseline: random background probes
Reading: higher = stronger binding
Target sequence (chain): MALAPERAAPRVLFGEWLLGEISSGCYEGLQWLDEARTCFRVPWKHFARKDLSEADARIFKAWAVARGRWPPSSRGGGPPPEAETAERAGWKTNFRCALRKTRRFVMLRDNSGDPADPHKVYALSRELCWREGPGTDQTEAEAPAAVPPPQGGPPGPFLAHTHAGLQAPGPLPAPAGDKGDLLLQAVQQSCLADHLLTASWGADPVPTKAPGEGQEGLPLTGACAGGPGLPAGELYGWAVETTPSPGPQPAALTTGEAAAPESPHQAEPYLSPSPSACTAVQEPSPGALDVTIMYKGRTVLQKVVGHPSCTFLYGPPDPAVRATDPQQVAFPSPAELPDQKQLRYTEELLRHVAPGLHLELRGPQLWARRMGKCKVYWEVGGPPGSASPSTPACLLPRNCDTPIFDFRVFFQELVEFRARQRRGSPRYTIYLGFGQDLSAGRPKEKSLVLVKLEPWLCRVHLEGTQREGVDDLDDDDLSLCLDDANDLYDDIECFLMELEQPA
With `GCCTAGCACCAGCATGCCTGTCCCTGGGTGTGCTAGGTCTTGATTCGCTTGACGCTGCTG` the log fluorescence was -0.564 z-score.
`GCCTAGCACGACGGACTGGTTATCGGGACGTGCTAGGTCTTGATTCGCTTGACGCTGCTG` gave a log fluorescence of -0.357 z-score.
For `GCCTAGCACTTAGGTCTTGGACTGGGTTAGTGCTAGGTCTTGATTCGCTTGACGCTGCTG`, the log fluorescence was -0.223 z-score.
For `GCCTAGCACTTAGGTTTCGGTATAGGTTAGTGCTAGGTCTTGATTCGCTTGACGCTGCTG`, the log fluorescence was 10.2 z-score.

Block 3
Target: Histone acetyltransferase KAT6A, winged helix 1, GST fusion (KAT6A, Homo sapiens, UniProt Q92794, residues 1-85)
Technique: protein binding microarray
Form: double-stranded DNA, one strand shown
Sample: in vitro
Tested at: not given
Setting: 8-mer, flanks averaged, mean of 2 arrays, mostly near background
Baseline: not given
Reading: higher = stronger binding
Construct (chain): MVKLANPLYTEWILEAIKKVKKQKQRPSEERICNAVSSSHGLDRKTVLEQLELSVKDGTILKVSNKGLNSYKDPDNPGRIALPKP
For `AGCCACTC`, the E-score was -0.199.
The E-score of `ACCGTACA` is reported as 0.052.
With `CAGTGTAG` the E-score was -0.105.
The E-score of `GAGAACCA` is reported as -0.191.

Other studies, line by line
`PhoQ, residues 284 288 289 292 302 303 SSTLSG` has a fold induction of 11.6 (PhoP, residues 12 14 15 18 19 TPWLV (Escherichia coli, UniProt P23836); Sort-seq, item: YFP reporter; E. coli; PhoQ-PhoP variant library, added: 10 µM Mg2+; baseline: high Mg2+ state, higher = stronger signaling).

A few entries again (block 1):
`ATTCAGTA` has an E-score of 0.303.
The E-score of `TACGGGGA` is reported as -0.234.
